Measured values from different studies.
Numbered parts are unrelated; each lists some results of a single study.

Sample 1 — method: protein-binding microarray; molecule type: double-stranded DNA, one strand shown; medium: in vitro; tested at: 0.8 µM; notes: whole 60-bp probe, no competitor; direction: higher = stronger binding; endpoint: fluorescence intensity; constant ends, left off below: … GTCTTGATTCGCTTGACGCTGCTG
Target: Centromere-binding protein 1, full length, N-terminal tag (CBF1, Saccharomyces cerevisiae, UniProt P17106, residues 1-351)
Chain of UniProt P17106 (whole entry, looked up): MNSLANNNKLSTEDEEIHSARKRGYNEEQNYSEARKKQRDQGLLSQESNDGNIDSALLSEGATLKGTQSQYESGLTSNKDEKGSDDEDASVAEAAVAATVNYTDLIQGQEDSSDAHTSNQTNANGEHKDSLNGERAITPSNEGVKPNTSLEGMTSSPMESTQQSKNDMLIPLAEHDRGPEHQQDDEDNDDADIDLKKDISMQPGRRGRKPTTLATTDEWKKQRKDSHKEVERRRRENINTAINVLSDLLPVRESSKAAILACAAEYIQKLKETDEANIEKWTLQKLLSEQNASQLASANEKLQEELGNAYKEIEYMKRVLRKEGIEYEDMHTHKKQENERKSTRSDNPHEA
Oligonucleotide = CTACCACCCCCGCATCACACCCAGTCTTCTAGCTTC; value = 517 a.u.
Oligonucleotide = GAACTCCTCAGAGGTGTCATCAGAAACACCTCATAG; value = 501 a.u.
Oligonucleotide = GAATGATATAGTGGTCACCAGAACACTTTCAAATAG; value = 642 a.u.
Oligonucleotide = GAACCCTCAACTTAGCATGTGCTGATTACACTATAG; value = 795 a.u.
Oligonucleotide = CTAGTAGTATTTTGTCACGTGATTTTGATCCAATTC; value = 30700 a.u.

Sample 2 — method: aptamer microarray, sandwich; molecule type: DNA with 2'F-ANA; medium: in vitro; tested at: 200 nM; together with: Cy3 exosite-II aptamer, 400 nM; direction: higher = stronger binding; endpoint: mean fluorescence intensity; oligonucleotide: GGTTGGTGTGGTTGG
Target: Prothrombin, mature alpha-thrombin (F2, Homo sapiens, UniProt P00734)
Notes: whole 15-mer aptamer, many near background
Modification = 2'F-ANA at 2 4 5 6 7 11 12 13 15; value = 74.6 a.u.
Modification = 2'F-ANA at 1 4 7 9 10 11 13 14 15; value = 45.3 a.u.
Modification = 2'F-ANA at 5 9 10 12 13 14; value = 42 a.u.
Modification = 2'F-ANA at 6 8 10 12 14 15; value = 95.8 a.u.
Modification = 2'F-ANA at 2 4 5 6 8 10 12 13 14 15; value = 52.4 a.u.

Sample 3 — method: RNA Bind-n-Seq; molecule type: RNA; medium: in vitro; tested at: 20 nM; notes: 6-mer, flanks averaged, single round; together with: 150 mM LiCl; relative to: input library; direction: higher = stronger binding; endpoint: 6-mer enrichment (R)
Target: TAR DNA-binding protein 43, full length, His tag (TARDBP, Homo sapiens, UniProt Q13148, residues 1-414)
Oligonucleotide = AUUCUU; value = 0.979
Oligonucleotide = AACCGU; value = 0.827
Oligonucleotide = CUCAUG; value = 0.881
Oligonucleotide = UGAUAA; value = 0.895

Further values, each from its own experiment
Molecule = PhoQ, residues 284 288 289 292 302 303 TASMAF; target = PhoP, residues 12 14 15 18 19 NMSFL (Escherichia coli, UniProt P23836); assay = Sort-seq, item: YFP reporter; test system = E. coli; setting = PhoQ-PhoP variant library, together with: 10 µM Mg2+; scale = relative to: high Mg2+ state, higher = stronger signaling; endpoint = fold induction; value = 13.5
